Assay results gathered from unrelated publications.
Each numbered part is a random draw from the data of one study; scales do not carry over between parts.

Sample 1
Target: Histone acetyltransferase KAT6A, both winged helices, GST fusion (KAT6A, Homo sapiens, UniProt Q92794, residues 1-181)
Technique: protein binding microarray
Form: double-stranded DNA, one strand shown
Matrix: in vitro
Concentration: not given
Setting: 8-mer, flanks averaged, mean of 2 arrays, mostly near background
Baseline: not given
Direction: higher = stronger binding
Construct (chain): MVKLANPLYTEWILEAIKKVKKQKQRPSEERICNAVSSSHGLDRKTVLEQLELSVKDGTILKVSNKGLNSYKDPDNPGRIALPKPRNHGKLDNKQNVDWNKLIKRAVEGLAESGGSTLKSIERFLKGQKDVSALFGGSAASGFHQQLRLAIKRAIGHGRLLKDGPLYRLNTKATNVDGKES
Strand | E-score
CCCCTTAA | -0.252
CATTGCGA | 0.0624
AACCCTTA | -0.117
ATCGAAAT | 0.0475
CTTACAAA | -0.0909
CTAAATTA | -0.107
ACACAAGC | -0.0546
AGCCTCGC | 0.141
ACAGTCAC | -0.106
CGCTAGCA | 0.0202
GCAAATGA | -0.166
AGCGTCGA | -0.0579
TCGCCCGA | 0.124
AGTAGGAA | -0.204
CCGTCGCA | 0.322
AACACGAT | 0.00886
AATGGTAA | -0.0925
ACGCGCCT | 0.22
GCTCAACC | -0.0677
AGTAGAGA | -0.185
CGTAGTCC | 0.0343
ACATTGAC | 0.0239
CTACGTAG | 0.135

Sample 2
Target: RNA binding protein fox-1 homolog 2, RRM domain, GST-SBP tag (RBFOX2, Homo sapiens, UniProt O43251-10, residues 100-194)
Technique: RNA Bind-n-Seq
Form: RNA
Matrix: in vitro
Concentration: 365 nM
Setting: natural RNA segment, single round, ends assumed
Baseline: no-protein control
Direction: higher = stronger binding
Constant ends, left off below: GGGAGUUCUACAGUCCGACGAUC … UGGAAUUCUCGGGUGCCAA
Residues (chain): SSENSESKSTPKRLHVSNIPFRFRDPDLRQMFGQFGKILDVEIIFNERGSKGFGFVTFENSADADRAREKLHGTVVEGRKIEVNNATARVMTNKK
Strand | RBNS enrichment (R)
AAAUGUCGACUCAGCUAACCAUAUGUCCAGGUUGCUGCAGAGUUUCUUUCAAAUCUGAGUGUUGCCUGCUGAACUCGGAGGGGAGUUUGGAGAAAUUUUAGACAGCAGCU | 7.7
GAAGCCAGGCAGCAGCUACAGGAGUUAUCAUCUGUGUCUUUUACCAUGAUUUGAUUUGUGUUCUCAAAGCAAGUGUGCCCUUUGGUUCUGCAGAGCAGGCCCACUUCCUG | 0.18
UCUAGAACCUUCUUCCGUGGCUCUCAGGCAGCCCAAGGCCCAACACCAGUUGGGAUAAGUGUCAGAGUGAGCACCCCCUCAGCCCGUCCUCCACAAGGGACCCUUGAGAU | 0.295
CGUGUCCAUCCUUACCAAAGGAUUGUGACCGCAGACCGAGGCGCCACCGGCAACUAACCUAUGACCUUCUGACCUCUGAACUCUUCACCCAAUGAUGACCUGACCAUGCC | 0.187
CUUCUUAGCCUCUUUGUUUAGGGGCCACUGGAGAAUUCCACUUAGGGAGACUGGAUAUAGUAGUGCAUACCUAUAACUCCAGCACUUGGGACGUGGAGGUAGGUGGAUCA | 0.663
ACACCCUUCCUAUUCUUUUUCAUUCUUCUUGCAGUUCUGGGAGUAAAGCUCCCAGCAUAUUUAGAUAAUAGGGCAGGGGAAGCACCCUCUUUCUUUCUAGACUGGAUUAU | 0.687
CGUGUGGGUGGCACCCUGAGGUCAGGGGAUCCUAAGGGUGUCCUUCCAGAGACGGUGUUUCCAGGGGGAGGACCGCCCCCGCUUCCAGAUCCCCGGCCCCGGCUGUGACU | 0.536
GUGAGUUCCAGCUAGCAGGCUUUACAUCUGGGGAAAGGAAAACCAGGGGUUUUAGCUCUGUUCUCUGCUCCCAUCCUUCGCUCACCAGCUGAGUGAGAACAUGAACUUUU | 0.722
GUAUUCAGAAGCCUUUACUGAUUAAAGUUUUCUUUUAUUUGGGUGGCCGGGAGAGACCCAGGGAGGUUCUGGAGGUUCCUUUCUGUCUCCUGGCCCCACCAGGGAUUUCC | 0.501
AGCUGUAUUCGUACUCAAUUGUCAGUAUGGCACAGAUUACUGUAUUAAAAUAUUCUCCUUUCGUCUUCAUAUUUACCUUCUGAGGUAAUUUUUUAACUUAAUGUGUUACU | 0.758
GCCAAGAAGGCCACCAUGCUUUUACUGUCCAGACCAAAAUGUUGCUCUCAAUCCCCAACAUUUGAUAGUCUUAGCAUUUAAACAAAAUCUCCGAGUGAGGGAGGCCAGCC | 0.372
GCUGAGUGGAGCACCCACCCAAACACCAGACCACACUGUCCUCCGAAAAUAAACAUUUUAUACAGACUUGUGUCUUUGCUUCUGUCUUCCCCGUGGGCACUUGGCCAUUG | 1.1

Sample 3
Target: TAR DNA-binding protein 43, full length, His tag (TARDBP, Homo sapiens, UniProt Q13148, residues 1-414)
Technique: RNA Bind-n-Seq
Form: RNA
Matrix: in vitro
Concentration: 20 nM
Setting: 6-mer, flanks averaged, single round
Added: 150 mM LiCl
Baseline: input library
Direction: higher = stronger binding
Strand | 6-mer enrichment (R)
GUACCA | 0.875
AGUCUG | 0.905
CCUUGA | 1.17
UUUACA | 0.954
ACAUAC | 0.841
CAACAA | 0.927
GUAAAU | 0.942
AUAAGC | 0.866
GUAUGA | 1.34
CAUUUU | 1.2

Sample 4
Target: Sal-like protein 4, full length isoform A (SALL4, Homo sapiens, UniProt Q9UJQ4, residues 1-1053)
Sequence of UniProt Q9UJQ4 (whole entry, looked up): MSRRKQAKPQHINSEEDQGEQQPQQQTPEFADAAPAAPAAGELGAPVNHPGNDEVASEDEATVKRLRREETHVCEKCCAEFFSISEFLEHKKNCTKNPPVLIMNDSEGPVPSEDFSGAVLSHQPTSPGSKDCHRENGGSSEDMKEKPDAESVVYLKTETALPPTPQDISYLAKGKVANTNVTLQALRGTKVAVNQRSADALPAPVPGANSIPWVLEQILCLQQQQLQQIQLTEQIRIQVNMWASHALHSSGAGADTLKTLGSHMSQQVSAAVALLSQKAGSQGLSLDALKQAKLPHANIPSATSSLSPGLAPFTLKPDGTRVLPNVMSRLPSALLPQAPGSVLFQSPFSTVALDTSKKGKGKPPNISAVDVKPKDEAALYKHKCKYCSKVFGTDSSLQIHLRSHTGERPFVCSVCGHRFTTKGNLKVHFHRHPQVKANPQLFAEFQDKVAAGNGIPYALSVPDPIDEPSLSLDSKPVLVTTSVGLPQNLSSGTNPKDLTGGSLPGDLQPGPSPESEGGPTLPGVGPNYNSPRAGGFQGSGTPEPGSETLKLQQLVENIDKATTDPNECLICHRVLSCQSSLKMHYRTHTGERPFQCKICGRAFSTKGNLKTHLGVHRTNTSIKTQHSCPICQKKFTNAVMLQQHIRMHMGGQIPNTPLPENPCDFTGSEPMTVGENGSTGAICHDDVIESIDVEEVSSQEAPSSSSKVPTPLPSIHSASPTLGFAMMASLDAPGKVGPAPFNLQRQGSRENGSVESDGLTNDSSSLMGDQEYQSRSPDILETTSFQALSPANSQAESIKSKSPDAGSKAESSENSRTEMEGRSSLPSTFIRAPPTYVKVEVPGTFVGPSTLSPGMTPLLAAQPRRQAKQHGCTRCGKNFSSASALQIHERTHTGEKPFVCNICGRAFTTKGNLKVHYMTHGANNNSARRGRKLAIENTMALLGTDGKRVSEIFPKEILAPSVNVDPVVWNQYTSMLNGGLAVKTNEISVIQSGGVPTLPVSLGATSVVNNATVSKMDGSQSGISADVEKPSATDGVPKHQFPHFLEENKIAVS
Technique: universal PBM
Form: double-stranded DNA, one strand shown
Matrix: in vitro
Concentration: 600 nM
Setting: 8-mer, flanks averaged, mean of replicates
Direction: higher = stronger binding
Strand | E-score
ATTTGTAG | 0.256
GTCCAGGA | -0.145
CGGTATTC | -0.0385
ACCGATGA | 0.103
ACAATTAT | 0.416
AATCTACG | 0.0174
AGTGGGAT | -0.00713
AGGCAATC | -0.0406
AAACCCAC | -0.0667
AGCTTTAA | 0.178
CAACATGG | -0.00143
CGGTTGAC | -0.196
CTCGATTC | -0.0349
CCCGCAAC | -0.133
TAGTATGA | 0.311
GTGTATGA | 0.258

Sample 5
Target: Prothrombin, mature alpha-thrombin (F2, Homo sapiens, UniProt P00734)
Technique: aptamer microarray, sandwich
Form: DNA with 2'F-ANA
Matrix: in vitro
Concentration: 200 nM
Setting: whole 15-mer aptamer, many near background
Added: Cy3 exosite-II aptamer, 400 nM
Direction: higher = stronger binding
Strand: GGTTGGTGTGGTTGG
Modification | mean fluorescence intensity
2'F-ANA at 1 2 4 6 8 10 11 13 15 | 51.5 a.u.
2'F-ANA at 1 3 4 5 6 8 10 12 15 | 49.9 a.u.
2'F-ANA at 1 2 4 7 9 13 14 15 | 45.9 a.u.
2'F-ANA at 2 6 8 9 10 13 14 | 81.1 a.u.
2'F-ANA at 1 3 4 11 12 15 | 330 a.u.
2'F-ANA at 3 4 5 6 8 10 | 94.7 a.u.
2'F-ANA at 1 4 5 9 12 13 15 | 62.3 a.u.
2'F-ANA at 2 6 9 12 15 | 601 a.u.
2'F-ANA at 3 4 7 8 10 11 13 15 | 269 a.u.
2'F-ANA at 2 3 5 6 8 9 11 12 | 182 a.u.
2'F-ANA at 1 3 4 5 7 8 9 12 13 14 15 | 51 a.u.
2'F-ANA at 1 4 6 8 11 14 15 | 52.1 a.u.
2'F-ANA at 1 3 5 7 8 9 11 12 13 | 85.5 a.u.
2'F-ANA at 2 3 5 7 8 11 13 15 | 99.8 a.u.
2'F-ANA at 1 3 4 5 7 9 12 13 14 15 | 45.3 a.u.
2'F-ANA at 1 2 3 4 7 8 9 10 12 13 15 | 68 a.u.
2'F-ANA at 2 3 4 7 8 9 11 12 14 | 352 a.u.
2'F-ANA at 3 4 7 8 9 10 12 13 15 | 281 a.u.
2'F-ANA at 2 4 7 10 12 13 | 108 a.u.
2'F-ANA at 1 2 3 4 5 7 8 11 | 52.9 a.u.
2'F-ANA at 1 2 3 4 6 11 12 13 14 15 | 66.3 a.u.
2'F-ANA at 7 10 11 12 14 15 | 107 a.u.
2'F-ANA at 2 8 10 11 12 14 15 | 98.6 a.u.
2'F-ANA at 2 5 6 7 8 10 11 12 13 14 15 | 66.2 a.u.
2'F-ANA at 1 2 5 12 13 | 107 a.u.

Single results of other studies
Sequence | organism | test | test system | setting | how to read | endpoint | value
GAPLKKLFTSTGL | Saccharomyces cerevisiae | peptide binding, yeast competitive growth sequencing | peptide, cyclin E2-Cln2 fusion | library 1 | direction not given | enrichment score | -0.808

Some of these lines once more (sample 1):
Strand | E-score
AGCCTCGC | 0.141
ACAGTCAC | -0.106
CGCTAGCA | 0.0202
GCAAATGA | -0.166
AGCGTCGA | -0.0579
TCGCCCGA | 0.124
AGTAGGAA | -0.204
CCGTCGCA | 0.322
AACACGAT | 0.00886
AATGGTAA | -0.0925
ACGCGCCT | 0.22
